# Results collected from several papers.
# Parts stem from different laboratories: compare values within a part only. Values joined by “and” are separate records of one study, mostly repeats; a detail may differ.
# Chain of UniProt P35626 (whole entry, looked up): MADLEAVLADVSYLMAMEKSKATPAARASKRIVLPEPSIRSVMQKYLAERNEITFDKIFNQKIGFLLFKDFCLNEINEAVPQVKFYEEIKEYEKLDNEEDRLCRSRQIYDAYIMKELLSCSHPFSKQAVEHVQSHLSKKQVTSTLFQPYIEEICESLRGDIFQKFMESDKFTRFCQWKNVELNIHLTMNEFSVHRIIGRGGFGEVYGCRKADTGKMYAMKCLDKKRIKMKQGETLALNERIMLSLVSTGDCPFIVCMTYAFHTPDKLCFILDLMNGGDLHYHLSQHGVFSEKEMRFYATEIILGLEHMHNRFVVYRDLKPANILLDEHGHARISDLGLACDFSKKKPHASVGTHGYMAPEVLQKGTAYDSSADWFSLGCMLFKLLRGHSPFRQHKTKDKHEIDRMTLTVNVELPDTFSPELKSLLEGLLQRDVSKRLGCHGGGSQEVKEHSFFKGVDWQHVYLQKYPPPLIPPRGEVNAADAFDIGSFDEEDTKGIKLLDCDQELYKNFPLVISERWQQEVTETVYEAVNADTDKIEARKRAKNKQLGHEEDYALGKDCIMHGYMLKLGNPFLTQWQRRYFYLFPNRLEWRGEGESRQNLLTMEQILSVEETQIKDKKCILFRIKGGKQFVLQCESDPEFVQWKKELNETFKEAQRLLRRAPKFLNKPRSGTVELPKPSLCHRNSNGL
# Chain of UniProt P49674 (whole entry, looked up): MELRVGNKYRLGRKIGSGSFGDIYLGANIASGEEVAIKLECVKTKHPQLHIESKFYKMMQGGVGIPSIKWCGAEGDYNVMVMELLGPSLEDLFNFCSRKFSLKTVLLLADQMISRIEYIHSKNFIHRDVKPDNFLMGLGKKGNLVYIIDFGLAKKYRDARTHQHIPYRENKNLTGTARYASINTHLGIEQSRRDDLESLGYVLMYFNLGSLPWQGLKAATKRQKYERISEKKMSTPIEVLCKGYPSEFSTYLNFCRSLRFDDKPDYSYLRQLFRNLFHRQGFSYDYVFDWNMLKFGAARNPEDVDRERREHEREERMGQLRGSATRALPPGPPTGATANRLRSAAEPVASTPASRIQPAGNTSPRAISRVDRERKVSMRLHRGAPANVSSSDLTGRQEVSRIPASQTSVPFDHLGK
# Chain of UniProt P53671 (whole entry, looked up): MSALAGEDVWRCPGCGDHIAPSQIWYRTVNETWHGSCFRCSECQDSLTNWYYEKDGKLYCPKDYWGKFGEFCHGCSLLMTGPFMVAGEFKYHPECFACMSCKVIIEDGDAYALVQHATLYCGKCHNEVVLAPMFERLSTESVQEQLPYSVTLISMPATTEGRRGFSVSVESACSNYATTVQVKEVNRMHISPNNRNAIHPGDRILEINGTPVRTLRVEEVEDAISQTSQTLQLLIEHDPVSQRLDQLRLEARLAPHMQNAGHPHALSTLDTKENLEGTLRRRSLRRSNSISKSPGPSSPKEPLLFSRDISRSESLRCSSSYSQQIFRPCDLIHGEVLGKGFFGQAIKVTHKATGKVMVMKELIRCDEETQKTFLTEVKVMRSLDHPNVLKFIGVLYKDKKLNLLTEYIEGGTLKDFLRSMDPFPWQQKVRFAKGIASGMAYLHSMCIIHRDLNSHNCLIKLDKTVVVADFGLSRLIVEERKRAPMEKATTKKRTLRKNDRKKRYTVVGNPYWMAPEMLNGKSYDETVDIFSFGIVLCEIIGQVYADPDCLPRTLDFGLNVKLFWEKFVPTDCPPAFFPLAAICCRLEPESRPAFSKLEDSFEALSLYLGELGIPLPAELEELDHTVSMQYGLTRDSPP
# Chain of UniProt P25098 (whole entry, looked up): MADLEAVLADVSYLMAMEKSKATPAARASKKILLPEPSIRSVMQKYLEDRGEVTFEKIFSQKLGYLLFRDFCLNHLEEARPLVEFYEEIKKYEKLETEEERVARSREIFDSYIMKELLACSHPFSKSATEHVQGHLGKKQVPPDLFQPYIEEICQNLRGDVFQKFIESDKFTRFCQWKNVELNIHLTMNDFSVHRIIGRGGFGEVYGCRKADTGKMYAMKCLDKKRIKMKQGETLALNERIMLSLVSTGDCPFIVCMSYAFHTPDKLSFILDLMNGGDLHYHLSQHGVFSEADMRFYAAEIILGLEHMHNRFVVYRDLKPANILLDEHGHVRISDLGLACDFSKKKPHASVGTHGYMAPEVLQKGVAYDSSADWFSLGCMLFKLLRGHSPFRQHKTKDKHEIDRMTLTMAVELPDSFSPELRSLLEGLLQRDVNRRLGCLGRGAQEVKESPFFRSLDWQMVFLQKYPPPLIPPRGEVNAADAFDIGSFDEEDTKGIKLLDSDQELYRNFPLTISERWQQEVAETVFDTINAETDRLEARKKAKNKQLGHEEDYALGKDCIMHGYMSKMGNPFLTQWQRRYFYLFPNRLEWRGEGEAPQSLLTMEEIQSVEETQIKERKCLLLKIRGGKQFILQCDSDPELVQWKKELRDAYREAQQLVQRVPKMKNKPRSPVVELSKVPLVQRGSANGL
# Chain of UniProt P28482 (whole entry, looked up): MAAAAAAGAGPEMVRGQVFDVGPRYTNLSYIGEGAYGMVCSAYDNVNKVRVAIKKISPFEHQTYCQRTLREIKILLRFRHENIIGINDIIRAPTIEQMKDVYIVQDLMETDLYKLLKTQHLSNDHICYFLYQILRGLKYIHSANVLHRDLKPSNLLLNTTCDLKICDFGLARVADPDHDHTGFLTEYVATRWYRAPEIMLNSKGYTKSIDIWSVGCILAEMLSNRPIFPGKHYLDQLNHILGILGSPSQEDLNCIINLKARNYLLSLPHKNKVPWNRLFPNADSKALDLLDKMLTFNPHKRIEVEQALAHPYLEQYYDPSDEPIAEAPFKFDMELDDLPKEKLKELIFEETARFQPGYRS
# Chain of UniProt O00506 (whole entry, looked up): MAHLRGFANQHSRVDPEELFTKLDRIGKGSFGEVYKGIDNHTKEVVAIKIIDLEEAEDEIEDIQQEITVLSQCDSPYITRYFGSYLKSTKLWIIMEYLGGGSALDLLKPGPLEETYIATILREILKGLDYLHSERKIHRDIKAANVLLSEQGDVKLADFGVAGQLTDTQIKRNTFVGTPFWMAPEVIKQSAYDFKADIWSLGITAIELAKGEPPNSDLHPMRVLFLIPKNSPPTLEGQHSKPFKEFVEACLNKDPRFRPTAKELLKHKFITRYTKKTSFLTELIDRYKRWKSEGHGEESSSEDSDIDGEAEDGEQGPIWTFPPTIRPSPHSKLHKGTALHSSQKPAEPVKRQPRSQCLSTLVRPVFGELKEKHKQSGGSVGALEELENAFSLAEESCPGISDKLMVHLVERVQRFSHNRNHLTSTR
# Chain of UniProt P57078 (whole entry, looked up): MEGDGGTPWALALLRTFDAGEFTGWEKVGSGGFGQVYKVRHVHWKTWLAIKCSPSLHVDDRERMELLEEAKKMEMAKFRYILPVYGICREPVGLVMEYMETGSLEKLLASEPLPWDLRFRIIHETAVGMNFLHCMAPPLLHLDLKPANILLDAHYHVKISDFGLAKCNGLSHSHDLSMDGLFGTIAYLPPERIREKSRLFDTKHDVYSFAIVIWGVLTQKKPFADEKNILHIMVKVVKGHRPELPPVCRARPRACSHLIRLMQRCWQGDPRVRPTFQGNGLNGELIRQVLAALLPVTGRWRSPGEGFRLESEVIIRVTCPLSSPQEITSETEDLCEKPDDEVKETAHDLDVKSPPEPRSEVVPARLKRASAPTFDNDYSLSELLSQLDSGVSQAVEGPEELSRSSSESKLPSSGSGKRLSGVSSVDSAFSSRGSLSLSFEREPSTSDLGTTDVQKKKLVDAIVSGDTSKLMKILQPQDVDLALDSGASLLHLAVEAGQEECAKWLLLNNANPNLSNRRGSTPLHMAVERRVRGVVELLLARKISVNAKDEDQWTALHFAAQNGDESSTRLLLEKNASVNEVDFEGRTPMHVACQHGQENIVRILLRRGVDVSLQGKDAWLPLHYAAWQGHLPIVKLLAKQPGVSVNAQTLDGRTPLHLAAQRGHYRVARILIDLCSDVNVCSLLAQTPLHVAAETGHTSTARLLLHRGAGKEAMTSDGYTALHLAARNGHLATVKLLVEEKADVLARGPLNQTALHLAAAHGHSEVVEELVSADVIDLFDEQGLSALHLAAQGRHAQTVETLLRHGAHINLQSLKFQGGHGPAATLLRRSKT

# Sample 1
# SMILES: c1ccc(Oc2ccc(Nc3c4c(nc5ccccc35)CCC4)cc2)cc1
cell line,assay,setting,cytotoxicity
PMA-differentiated THP-1 macrophages,,"2 µM, 64 h",-3% and -1%
HEK293,resazurin,"0.66 µM, 10% serum",21% and 12%
PMA-differentiated THP-1 macrophages,,"0.004 µM, 64 h",7% and 2%
PMA-differentiated THP-1 macrophages,,"0.04 µM, 64 h",6% and 9%
J774.1,resazurin,1.66 µM,-6% and -2%
RAW264.7,resazurin,1.66 µM,11% and -9%
HEK293,resazurin,"0.0166 µM, 10% serum",5%
RAW264.7,resazurin,3.32 µM,-9% and -8%
PMA-differentiated THP-1 macrophages,,"80 µM, 64 h",100%

# Sample 2
# SMILES: CN1CCN(C(=O)c2ccc(NC(=O)Nc3ccc(N(C)c4ccnc(Nc5ccc(CS(C)(=O)=O)cc5)n4)cc3)cc2)CC1
# Tested at: 1 µM
target,assay,setting,scale,remaining binding [%]
"GSK3A (Homo sapiens, UniProt P49840)",competitive binding panel,,baseline: vehicle,100
"PRKCI (Homo sapiens, UniProt P41743)",competitive binding panel,,baseline: vehicle,74
"CAMK1G (Homo sapiens, UniProt Q96NX5)",competitive binding panel,,baseline: vehicle,88
"LIM domain kinase 2 (LIMK2, Homo sapiens, UniProt P53671)",competitive binding panel,,baseline: vehicle,43
"WNK4 (Homo sapiens, UniProt Q96J92)",competitive binding panel,,baseline: vehicle,100
"GRK3 (Homo sapiens, UniProt P35626)",competitive binding panel,,baseline: vehicle,97
"MINK1 (Homo sapiens, UniProt Q8N4C8)",competitive binding,MINK,,18
"ABL1 (Homo sapiens, UniProt P00519, E255K)",competitive binding panel,,baseline: vehicle,38
"RIPK4 (Homo sapiens, UniProt P57078)",competitive binding panel,,baseline: vehicle,57
"MARK2 (Homo sapiens, UniProt Q7KZI7)",competitive binding panel,,baseline: vehicle,84

# Sample 3
# Structure (SMILES): CS(=O)(=O)N1CCCC(NC(=O)[C@H](CCC2CCCCC2)NC(=O)c2ccc(CNc3ncnc4c3nnn4-c3ccccc3)cc2)C1 (stereo partly shown)
# Effect on: cell-free assay
# Method: competition with immobilised ligand
# Tested at: 0.1 µM
target,remaining binding [%]
"SRMS (Homo sapiens, UniProt Q9H3Y6)",98
"STK25 (Homo sapiens, UniProt O00506)",90
"MYLK (Homo sapiens, UniProt Q15746)",100
"MAP3K11 (Homo sapiens, UniProt Q16584)",92
"GRK2 (Homo sapiens, UniProt P25098)",72
"CSNK1E (Homo sapiens, UniProt P49674)",100
"MAPK1 (Homo sapiens, UniProt P28482)",90

# Sample 4
# Target: Serine/threonine-protein kinase D1 (PRKD1, Homo sapiens, UniProt Q15139)
# Chain of UniProt Q15139 (whole entry, looked up): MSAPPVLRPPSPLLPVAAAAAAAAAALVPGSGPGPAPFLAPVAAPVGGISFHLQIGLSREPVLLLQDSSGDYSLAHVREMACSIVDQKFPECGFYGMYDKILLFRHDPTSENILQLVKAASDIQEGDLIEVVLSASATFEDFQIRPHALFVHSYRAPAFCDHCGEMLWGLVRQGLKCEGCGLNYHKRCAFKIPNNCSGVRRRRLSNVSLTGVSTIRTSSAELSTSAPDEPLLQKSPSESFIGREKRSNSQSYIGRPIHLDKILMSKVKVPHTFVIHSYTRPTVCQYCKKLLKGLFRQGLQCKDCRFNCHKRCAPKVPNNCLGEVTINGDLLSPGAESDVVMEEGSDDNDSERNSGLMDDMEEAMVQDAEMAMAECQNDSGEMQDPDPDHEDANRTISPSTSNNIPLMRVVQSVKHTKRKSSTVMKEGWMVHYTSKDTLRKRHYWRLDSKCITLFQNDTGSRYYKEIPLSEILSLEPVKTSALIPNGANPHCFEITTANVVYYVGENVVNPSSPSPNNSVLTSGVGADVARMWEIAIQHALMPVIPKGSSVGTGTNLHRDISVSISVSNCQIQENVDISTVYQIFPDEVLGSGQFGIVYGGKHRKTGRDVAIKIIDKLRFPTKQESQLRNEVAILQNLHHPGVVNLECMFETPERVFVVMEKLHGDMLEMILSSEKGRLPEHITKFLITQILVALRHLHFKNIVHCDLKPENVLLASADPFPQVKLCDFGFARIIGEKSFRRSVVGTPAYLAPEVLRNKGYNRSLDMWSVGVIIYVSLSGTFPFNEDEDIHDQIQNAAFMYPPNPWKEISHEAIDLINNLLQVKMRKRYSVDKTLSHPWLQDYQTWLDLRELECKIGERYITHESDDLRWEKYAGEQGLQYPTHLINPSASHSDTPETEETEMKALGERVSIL
# Effect on: enzyme activity
# Action: inhibitor
# Tested at: 0.5 µM
# Baseline: control
SMILES,remaining activity
NCCNc1ncc(C(N)=O)c(Nc2cccc(C(F)(F)F)c2)n1,30.3%
O=C(CCCc1ccc(-c2ccccc2F)cc1)Nc1ccc(O)cc1,98.4%
Cc1nc(-c2ccccc2)c(-c2ccncc2)o1,95.6%
CNC(=O)c1cc(Oc2ccc(NC(=O)Nc3ccc(Cl)c(C(F)(F)F)c3)cc2)ccn1,99.7%
OCC(O)CCON=C1C(c2c(O)[nH]c3ccccc23)=Nc2ccccc21 (stereo not shown),72.7%
Cn1sc(=O)n(Cc2ccccc2)c1=O,101%
O=S(=O)(c1cccc2cnccc12)N1CCCNCC1,65.1%
COc1ccc(CNC(=O)Nc2ncc([N+](=O)[O-])s2)cc1,104%
Cc1ccc(NC(=O)c2ccc(CN3CCN(C)CC3)cc2)cc1Nc1nc(-c2cccnc2)cs1,98.2%
CCOC(=O)c1c(C)[nH]c(/C=C2\C(=O)Nc3ccccc32)c1C,91.3%
O=c1c2ccccc2[nH]c(=S)n1CCN1CCC(=C(c2ccc(F)cc2)c2ccc(F)cc2)CC1,101%
O=C1NC(=O)C(c2cn(CCCO)c3ncccc23)=C1c1cnccn1,107%
O=C1NC(=O)C(c2cn(CCCn3ccnc3)c3ccccc23)=C1Nc1ccccc1,94.4%
CC(C)[C@H](CO)Nc1nc(Nc2cc(N)cc(Cl)c2)c2ncn(C(C)C)c2n1,94.2%
